Measured values of several laboratories.
Values joined by “and” are separate records of one study, mostly repeats; a detail may differ. ± gives the spread as reported.
rep main protease: Replicase polyprotein 1ab, main protease (rep, Severe acute respiratory syndrome coronavirus 2, UniProt P0DTD1)
Matrix protein 2 S31N: Matrix protein 2 (Influenza A virus, UniProt P0DOF5, S31N)

CC(C)C[C@@H]1NC(=O)[C@H](Cc2ccc(O)cc2)NC(=O)[C@H]([C@@H](C)O)NC(=O)[C@H](Cc2c[nH]c3ccccc23)NC(=O)[C@H](CO)NC(=O)[C@H](Cc2ccc(O)cc2)NC(=O)[C@@H](Cc2ccc(O)cc2)NC(=O)CSC[C@@H](C(N)=O)NC(=O)[C@H](CO)NC(=O)[C@H](Cc2c[nH]c3ccccc23)NC(=O)[C@H](Cc2ccc(O)cc2)NC(=O)[C@H](Cc2ccc(O)cc2)NC(=O)[C@H](CC(=O)O)NC(=O)[C@H](CCCNC(=N)N)NC(=O)CNC1=O gave an IC50 of greater than 50 µM (rep main protease; enzyme activity, inhibitor).
CC(C)(C)c1ncc(CNC23CC4CC(CC(C4)C2)C3)s1 — result for inhibition: “inactive” (Matrix protein 2 S31N; channel activity, inhibitor; concentration not given, S31N mutant).
For NCCCC[C@H](NC(=O)[C@H](CC(=O)O)NC(=O)[C@@H](N)Cc1ccccc1)C(=O)N[C@@H](CO)C(=O)O, the IC50 was 63.2 µM (rep main protease; enzyme activity, inhibitor).
Cc1cc(C(C#N)c2ccc(Cl)cc2)c(Cl)cc1NC(=O)c1cc(I)cc(I)c1O (stereo not shown) gave an IC50 of 5.3 µM (rep main protease; enzyme activity, inhibitor, FRET).
For Cc1cc(CNC23CC4CC(CC(C4)C2)C3)no1, the inhibition was 49% (Matrix protein 2 S31N; channel activity, inhibitor; 100 µM, S31N mutant).
For O=C(/C=C/c1ccc(O)cc1)O[C@@H]1[C@@H](O)[C@H](Oc2cc(O)c3c(=O)cc(-c4ccc(O)cc4)oc3c2)O[C@H](CO)[C@H]1O, the IC50 was 65.4 µM and 83.4 µM (rep main protease; enzyme activity, inhibitor; added: fluorogenic substrate).
CC(C)(C)OC(=O)NCCOc1ccc(Cl)cc1C(=O)NCC(=O)Nc1ccc([N+](=O)[O-])cc1Cl: Kd “no binding” (rep main protease; SPR; 0.164 to 100 µM, 25 °C).
For O=C(NC1CCN(c2ncnc3[nH]cnc23)CC1)c1cccc(S(=O)(=O)Nc2ccc3[nH]ncc3c2)c1, the IC50 was 3.25 µM (Replicase polyprotein 1ab, nsp14 (rep, Severe acute respiratory syndrome coronavirus 2, UniProt P0DTD1)).
CC(C)C[C@@H]1NC(=O)[C@H](C(C)C)NC(=O)[C@H](C)NC(=O)[C@H](Cc2ccc(O)cc2)NC(=O)[C@H](CCC(N)=O)NC(=O)[C@H](CC(C)C)NC(=O)[C@@H](Cc2ccc(O)cc2)NC(=O)C[Se]C[C@@H](C(N)=O)NC(=O)[C@H](CCC(=O)O)NC(=O)[C@H](CCCNC(=N)N)NC(=O)[C@H](CCCNC(=N)N)NC(=O)[C@H](CCCCN)NC(=O)[C@H](Cc2c[nH]cn2)NC(=O)[C@H](CCCNC(=N)N)NC1=O gave a Ki of 0.017 µM (rep main protease; enzyme activity, inhibitor).
The EC50 of CC(C)C(=O)OC[C@H]1O[C@@](C#N)(n2ccc(N)nc2=O)[C@H](O)[C@@H]1O is reported as 2.6 ± 0.06 µM (SARS-CoV-2; viral replication; Calu-3, Gamma).
CCCCC(CC)CNC(=N)NC(=N)NCCCCCCNC(=N)NC(=N)NCC(CC)CCCC (stereo not shown) gave an IC50 of 22.8 µM (rep main protease; enzyme activity, inhibitor, FRET).
With CC1=C(c2ccccc2)C1C(=O)NCc1nc(-c2ccc(Cl)cc2)no1 (stereo not shown) the IC50 was 21.2 µM (rep main protease; enzyme activity, inhibitor, FRET).
CC(C)C[C@H](NC(=O)[C@@H](NC(=O)[C@H](C)NC(=O)[C@@H](N)Cc1ccc(O)cc1)C(C)C)C(=O)N[C@@H](CCCNC(=N)N)C(=O)N[C@@H](Cc1c[nH]cn1)C(=O)N[C@@H](CCCCN)C(=O)N[C@@H](CCCNC(=N)N)C(=O)N[C@@H](CCCNC(=N)N)C(=O)N[C@@H](CCC(=O)O)C(=O)N[C@@H](CSCC(=O)N[C@H](Cc1ccc(O)cc1)C(=O)N[C@@H](CC(C)C)C(=O)N[C@@H](CCC(N)=O)C(=O)O)C(N)=O has an IC50 of 23.2 µM (rep main protease; enzyme activity, inhibitor).

Some of these lines once more:
CC(C)C[C@@H]1NC(=O)[C@H](Cc2ccc(O)cc2)NC(=O)[C@H]([C@@H](C)O)NC(=O)[C@H](Cc2c[nH]c3ccccc23)NC(=O)[C@H](CO)NC(=O)[C@H](Cc2ccc(O)cc2)NC(=O)[C@@H](Cc2ccc(O)cc2)NC(=O)CSC[C@@H](C(N)=O)NC(=O)[C@H](CO)NC(=O)[C@H](Cc2c[nH]c3ccccc23)NC(=O)[C@H](Cc2ccc(O)cc2)NC(=O)[C@H](Cc2ccc(O)cc2)NC(=O)[C@H](CC(=O)O)NC(=O)[C@H](CCCNC(=N)N)NC(=O)CNC1=O gave an IC50 of greater than 50 µM (rep main protease; enzyme activity, inhibitor).
